{"data": "Measurements pooled from the literature", "note": "Every numbered part comes from another study and shows a few of its results, in no order. Positions count from the first letter of the parent shown."}
{"data": "Study 1", "target": "Fragile X messenger ribonucleoprotein 1, C-terminal low-complexity region (Fmr1, Mus musculus, UniProt P35922)", "technique": "RNA Bind-n-Seq", "form": "RNA", "medium": "in vitro", "tested at": "200 nM", "notes": "whole 134-nt RNA, ends assumed", "added": "150 mM KCl", "baseline": "input library", "reading": "higher = stronger binding", "all sequences stand within": "GGGAGUUCUACAGUCCGACGAUC … UGGAAUUCUCGGGUGUCAAGG"}
{"Sequence": "GUAAGUGUGGCAAUGUGAACUGAAGCUGAUGGGCUGAGAACAUGGACUGAGCUUGUGGUGUGCUUUGCAGGAGGACUUGAAGCAGAGUUC", "log2 enrichment": 1}
{"Sequence": "CCUCAAGUCCUGUGCUACACAUCGUAUGUACCGAAUCGGUUUUUGGAGGAGGAAAGUAUUAUGUUACGCCGUUCGGAUCUGCACUUCCAG", "log2 enrichment": 0.138}
{"Sequence": "ACCACGCAGGUGGGCAUCUUUGGGAAGUGGGGCAAGGGGGGGAUAGGGAGGGGGGUAACACUUUGGGAACAGGUGGUCCCAGGUCGUUUC", "log2 enrichment": 0.634}
{"Sequence": "UCAAGUCCUGUGCUACACAUCGUAUGUACCGAAUCGUGUGUGUGUGUGUGUGUGUAAAGUAUUAUGUUACGCCGUUCGGAUCUGCACUUC", "log2 enrichment": 0.254}
{"Sequence": "GCUUAUGUAGACAUGAGGAAGAUUGGCAGUAGCCGGGGAAUGGUUUCUGCAUACCCUCGACAGCUAGAGUCAUUAAUCCGCUUAGCAGAA", "log2 enrichment": -0.157}
{"Sequence": "CCUCAAGUCCUGUGCUACACAUCGUAUGUACCGAAUCGGUUUUUGGUGGUGGAAAGUAUUAUGUUACGCCGUUCGGAUCUGCACUUCCAG", "log2 enrichment": 0.255}
{"Sequence": "UGGCCCUGGUGGCAUGCGGGGAGGAAGAGGUGGCCUCAUGGAUCGUGGUGGUCCCGGUGGAAUGUUCGGAGGUGGCCGUGGUGGAGACAG", "log2 enrichment": 0.174}
{"Sequence": "UGGCCCUGGUGGCAUGCGGGGAGGAAGAGGUGGCCUCAUGGAUCGUGGUGGUCCCGGUGGAAUGUUCAGACGUGGCCGUGGUGGAGACAG", "log2 enrichment": 0.011}
{"Sequence": "GCAGGAAGUAAAAACAAAUGGAAAUGCUUCGGAUGGUGGCAGGGGUGGGGGUUGCUAAGGAAAGGGUGGGAUGGGAGUGGGUAAAGAGUU", "log2 enrichment": 0.762}
{"Sequence": "UCCUCAAGUCCUGUGCUACACAUCGUAUGUACCGAAUCGGAGGAAAGGUGGAAAGUAUUAUGUUACGCCGUUCGGAUCUGCACUUCCAGC", "log2 enrichment": -0.592}
{"Sequence": "UACUGCUCCUCAGCAGGAAGCGGAUGCUGAGGUGAACACAGAAACACUAAAUAAGUCCUCCCAGGGGAGCUCCUCGAGCACACAAUCAGC", "log2 enrichment": 0.46}
{"Sequence": "UCAAGUCCUGUGCUACACAUCGUAUGUACCGAAUCGGUUUUGGUUUUGGUUUUGGAAAGUAUUAUGUUACGCCGUUCGGAUCUGCACUUC", "log2 enrichment": -0.771}
{"Sequence": "AAGUCCUGUGCUACACAUCGUAUGUACCGAAUCGGGAGGGUUUUUGGGUUUUUGGGAAAGUAUUAUGUUACGCCGUUCGGAUCUGCACUU", "log2 enrichment": 0.452}
{"Sequence": "UAAAUUCAUCUGAAAAUGGUGAGGACAGGCACAAACGCAAAGAAAGAAAGUCAUCAAGAGGCAGAAGUCACUCAAGAUCUAGGUCUCGUG", "log2 enrichment": -1.49}
{"data": "Study 2", "target": "CCNF, cyclin fold, Cln2 fusion (human)", "technique": "yeast growth competition, sequencing", "medium": "yeast", "notes": "strong parent motif", "baseline": "not given", "reading": "higher = stronger binding", "starting sequence": "CDKN1C docking peptide (human); TSACRSLFGPVDH"}
{"Variant": "TSACRSLFGAVDH [P10A]", "normalised enrichment score": 5.14}
{"Variant": "TSAARSLFGPVDH [C4A]", "normalised enrichment score": 4.02}
{"Variant": "TSACRALFGPVDH [S6A]", "normalised enrichment score": 5.39}
{"Variant": "TSACRSLLGPVDH [F8L]", "normalised enrichment score": 0.618}
{"Variant": "TAACRSLFGPVDH [S2A]", "normalised enrichment score": 5.71}
{"Variant": "TSACRSLFGPVDA [H13A]", "normalised enrichment score": 5.58}
{"Variant": "TSACRSLFGPVAH [D12A]", "normalised enrichment score": 6.22}
{"data": "Study 3", "target": "RING finger protein unkempt homolog, zinc fingers 1-6, GST-SBP tag (UNK, Homo sapiens, UniProt Q9C0B0, residues 30-357)", "technique": "RNA Bind-n-Seq", "form": "RNA", "medium": "in vitro", "tested at": "not given", "notes": "RNA with constant flanks, human and mouse sites, ends assumed", "baseline": "input RNA pool", "reading": "higher = stronger binding", "all sequences stand within": "GGGAGUUCUACAGUCCGACGAUC … CAACAGAGGAUUGAGCAUCA", "sequence of UniProt Q9C0B0 (30-357, looked up)": "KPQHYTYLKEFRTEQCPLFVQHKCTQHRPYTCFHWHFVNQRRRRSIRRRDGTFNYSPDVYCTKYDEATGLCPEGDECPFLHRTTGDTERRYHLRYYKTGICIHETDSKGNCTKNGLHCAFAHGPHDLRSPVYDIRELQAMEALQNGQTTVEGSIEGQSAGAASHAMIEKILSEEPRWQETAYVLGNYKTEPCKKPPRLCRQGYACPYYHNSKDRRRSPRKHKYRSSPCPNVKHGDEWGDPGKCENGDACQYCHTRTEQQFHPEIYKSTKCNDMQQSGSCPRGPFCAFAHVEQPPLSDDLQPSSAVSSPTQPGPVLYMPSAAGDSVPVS"}
{"Sequence": "CUGUGCGACUAUUCUCCGGGAGCCGUCCGUGUCACCGCCGGAACCUGGCGCAGGUUAAUUAUAGAAAAUGCCAAGUAGGAAAUUUGCCGAUGGUGAAGUGGUAAGAGGUCGAUGGCCUGG", "bound/input enrichment [ratio]": 0.952}
{"Sequence": "GUUGGUCAGUUCUACUUCUUGAUCCGGAAGCGAAUUCAUCUCCGAGCUGAGGAUGCCUUGUUUUUCUUUGUCAACAAUGUCAUUCCACCCACCAGUGCCACAAUGGGUCAGCUGUACCAG", "bound/input enrichment [ratio]": 0.143}
{"Sequence": "UUCAAAGCCUUACGUCGACAGUUGCCAGUGACACGUACUAAGAUCGACUGGAACAAGAUCCUUAGCUACAAGAUUGGCAAAGAGAUGCAGAAUGCAUAAAUGAAAAUUGCAUGAGCAGAU", "bound/input enrichment [ratio]": 0.22}
{"Sequence": "GGAUUUAAAAGAAGAGAGAGGAGGAAAAAUGAAUUUUGAAAACUUCUAGAGAAUAUAAAUCUAUAAAGGAAUGAAGAAAAGACUUAUUUGGAAAUUAUAAUUUAUAUUUGCCUAAAGGAG", "bound/input enrichment [ratio]": 0.811}
{"Sequence": "GUUGCCAGACCGGCCCAUAAAAAGAAAGCUCGAAUGGCGCGGACGCGCUCCGAUUUCUUGACUAGAGGUACUUUUGCCGAAGGGGAGGGGGAUACAGAGGAAGAUGAUUACGAUGACAUU", "bound/input enrichment [ratio]": 0.228}
{"Sequence": "UGUGGGGAUCGACACAUAUGGUUCCAAGAUUUCAAAGCAGUGGAAUGAAAAUGGAGCAGCUGAUGUGUUUCAUUGUUGUAUUGGUCUUAAGAGUGUUUUUGUAGUCCUGCAGUCUCCAGU", "bound/input enrichment [ratio]": 0.341}
{"Sequence": "CUCAGCCUGGGCGGCAACCAGCUGCAGAGCAUCCCCGCCGAGAUCGAGAACUUGCGGAGUUUAGAAUGUUUAUACCUUGGAGGAAACUUCAUUAAAGAAAUCCCACCAGAAUUAGCAAAU", "bound/input enrichment [ratio]": 2.41}
{"Sequence": "GUCCAGGCUUUGAAACAGGAAAUAGAGGUUCUAAAAGAAGAAAUAGGAAAUGCCCAGCUUGAAAAGGCUCACCAGCUGUCUGUCACUUCUCAAGUCCAGGAGCUGCAGAACUUAUUAAGA", "bound/input enrichment [ratio]": 1.16}
{"Sequence": "CUAAGCUCAGCUAAUGGAAGAAGAGUCUAGUUUCUUUGAGGCUUUGAUUUUGGUUAAACUAUAGAGCUCAUACCUUUCUGUAUGGUGCAGCUUACUAUUGUCUUUGGAUUGGUAACUUAA", "bound/input enrichment [ratio]": 0.141}
{"Sequence": "ACCAUUGUUGACACCGUGGGAUUUGGAGACCAGAUAAAUAAAGAUGACAGCUAUAAGCCGAUAGUAGAAUAUAUUGAUGCCCAGUUCGAGGCCUACCUGCAAGAGGAAUUGAAGAUUAAA", "bound/input enrichment [ratio]": 7.66}
{"Sequence": "CAGAAAUAUUGGUCAAAUUUAUUGACGUUGGCGGCUACAAACUUCUUAACAAUUGGCUGACGUAUUCAAAGACAACCAACAACAUUCCCCUCCUCCAGCAAAUUCUACUGACCCUGCAGC", "bound/input enrichment [ratio]": 0.623}
{"data": "Study 4", "target": "ABI1, truncated, D143A, DHFR fusion (Arabidopsis thaliana)", "technique": "DHFR PCA, deep sequencing", "medium": "yeast", "notes": "methotrexate growth selection, single substitutions", "added": "(+)-ABA 1.4 µM", "baseline": "wild-type fitted maximum", "reading": "higher = stronger binding", "starting sequence": "PYL1, truncated, DHFR fusion (Arabidopsis thaliana); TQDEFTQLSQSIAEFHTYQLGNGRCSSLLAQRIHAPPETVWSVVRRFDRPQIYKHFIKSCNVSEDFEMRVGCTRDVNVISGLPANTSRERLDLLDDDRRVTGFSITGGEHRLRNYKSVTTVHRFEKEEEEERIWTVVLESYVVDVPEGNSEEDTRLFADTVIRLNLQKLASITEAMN; partner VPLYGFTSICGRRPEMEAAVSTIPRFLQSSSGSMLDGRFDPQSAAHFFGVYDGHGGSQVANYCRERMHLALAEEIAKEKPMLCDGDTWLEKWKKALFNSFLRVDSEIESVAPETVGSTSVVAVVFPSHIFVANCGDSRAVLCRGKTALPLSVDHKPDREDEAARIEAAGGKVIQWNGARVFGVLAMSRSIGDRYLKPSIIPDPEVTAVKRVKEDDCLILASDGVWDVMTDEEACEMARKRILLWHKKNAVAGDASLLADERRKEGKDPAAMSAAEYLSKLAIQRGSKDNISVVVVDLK"}
{"Variant": "R45V", "relative binding score [%]": -18.9}
{"Variant": "F124M", "relative binding score [%]": 73.1}
{"Variant": "S104W", "relative binding score [%]": -4.96}
{"Variant": "R46N", "relative binding score [%]": -32.1}
{"Variant": "P146C", "relative binding score [%]": 5.86}
{"Variant": "Q31S", "relative binding score [%]": -0.343}
{"Variant": "D3L", "relative binding score [%]": 34.5}
{"Variant": "D144K", "relative binding score [%]": -23.5}
{"Variant": "V40W", "relative binding score [%]": 3.75}
{"Variant": "R113L", "relative binding score [%]": 35.1}
{"Variant": "F66E", "relative binding score [%]": 22.2}
{"Variant": "Y141P", "relative binding score [%]": -14.2}
{"Variant": "N114V", "relative binding score [%]": -0.733}
{"Variant": "N77V", "relative binding score [%]": 65.6}
{"Variant": "V118M", "relative binding score [%]": 28.1}
{"data": "Study 5", "target": "Interferon regulatory factor 3, full length, phosphomimetic (IRF3, Homo sapiens, UniProt Q14653, residues 1-427, S386D/S396D/S398D/S402D/T404D/S405D)", "technique": "protein-binding microarray", "form": "double-stranded DNA, one strand shown", "medium": "in vitro", "tested at": "2540 nM top", "notes": "60-bp whole probe", "added": "salmon DNA 0.4 mg/ml", "baseline": "random background probes", "reading": "higher = stronger binding", "all sequences stand within": "GCCTAGCAC … GTCTTGATTCGCTTGACGCTGCTG", "Construct (chain)": "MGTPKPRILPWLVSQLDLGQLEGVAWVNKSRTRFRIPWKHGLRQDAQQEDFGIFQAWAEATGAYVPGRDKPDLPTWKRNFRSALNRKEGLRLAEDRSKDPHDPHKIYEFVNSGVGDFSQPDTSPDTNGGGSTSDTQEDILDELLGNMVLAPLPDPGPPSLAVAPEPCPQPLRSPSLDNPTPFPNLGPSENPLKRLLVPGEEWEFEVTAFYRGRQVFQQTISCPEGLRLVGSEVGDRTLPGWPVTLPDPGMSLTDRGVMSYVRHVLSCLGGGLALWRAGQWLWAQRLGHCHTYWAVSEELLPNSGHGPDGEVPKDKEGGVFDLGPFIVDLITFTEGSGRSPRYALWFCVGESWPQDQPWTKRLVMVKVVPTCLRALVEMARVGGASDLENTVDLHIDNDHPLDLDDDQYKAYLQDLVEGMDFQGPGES"}
{"Sequence": "TCAAGAATCCCCTTCTAACTGTGCTAG", "fitted relative affinity [z-score]": 1.5}
{"Sequence": "CTACTTCTCTTTTGGCTTTCGTGCTAG", "fitted relative affinity [z-score]": 2.55}
{"Sequence": "TTAGGTTTCGGACTGAGTTAGTGCTAG", "fitted relative affinity [z-score]": 4.13}
{"Sequence": "TTAGGCTTCCTTTCCCTTTAGTGCTAG", "fitted relative affinity [z-score]": 3.78}
{"Sequence": "GACGGTATCGGCATCGGGACGTGCTAG", "fitted relative affinity [z-score]": 0.855}
{"Sequence": "TCAAATATATGTATATAACTGTGCTAG", "fitted relative affinity [z-score]": 0.22}
{"Sequence": "TTAGATATCAGTATCCATTAGTGCTAG", "fitted relative affinity [z-score]": 2.56}
{"Sequence": "TCAGTTTTGAGCTCTGTCACTGTGCTA", "fitted relative affinity [z-score]": 0.932}
{"Sequence": "AGCTTTCCCAACATCAGAGCGTGCTAG", "fitted relative affinity [z-score]": 3.71}
{"Sequence": "GTCGATATCGGGTTTCGAGACGTGCTA", "fitted relative affinity [z-score]": 1.98}
{"Sequence": "TCAGCTCTCTGGACTGTGACTGTGCTA", "fitted relative affinity [z-score]": -0.137}
